Measurements collected from several papers.
Numbered parts are unrelated; each lists some results of a single study. Changes are numbered by the printed parent chain.
Sequence of UniProt O43683 (whole entry, looked up): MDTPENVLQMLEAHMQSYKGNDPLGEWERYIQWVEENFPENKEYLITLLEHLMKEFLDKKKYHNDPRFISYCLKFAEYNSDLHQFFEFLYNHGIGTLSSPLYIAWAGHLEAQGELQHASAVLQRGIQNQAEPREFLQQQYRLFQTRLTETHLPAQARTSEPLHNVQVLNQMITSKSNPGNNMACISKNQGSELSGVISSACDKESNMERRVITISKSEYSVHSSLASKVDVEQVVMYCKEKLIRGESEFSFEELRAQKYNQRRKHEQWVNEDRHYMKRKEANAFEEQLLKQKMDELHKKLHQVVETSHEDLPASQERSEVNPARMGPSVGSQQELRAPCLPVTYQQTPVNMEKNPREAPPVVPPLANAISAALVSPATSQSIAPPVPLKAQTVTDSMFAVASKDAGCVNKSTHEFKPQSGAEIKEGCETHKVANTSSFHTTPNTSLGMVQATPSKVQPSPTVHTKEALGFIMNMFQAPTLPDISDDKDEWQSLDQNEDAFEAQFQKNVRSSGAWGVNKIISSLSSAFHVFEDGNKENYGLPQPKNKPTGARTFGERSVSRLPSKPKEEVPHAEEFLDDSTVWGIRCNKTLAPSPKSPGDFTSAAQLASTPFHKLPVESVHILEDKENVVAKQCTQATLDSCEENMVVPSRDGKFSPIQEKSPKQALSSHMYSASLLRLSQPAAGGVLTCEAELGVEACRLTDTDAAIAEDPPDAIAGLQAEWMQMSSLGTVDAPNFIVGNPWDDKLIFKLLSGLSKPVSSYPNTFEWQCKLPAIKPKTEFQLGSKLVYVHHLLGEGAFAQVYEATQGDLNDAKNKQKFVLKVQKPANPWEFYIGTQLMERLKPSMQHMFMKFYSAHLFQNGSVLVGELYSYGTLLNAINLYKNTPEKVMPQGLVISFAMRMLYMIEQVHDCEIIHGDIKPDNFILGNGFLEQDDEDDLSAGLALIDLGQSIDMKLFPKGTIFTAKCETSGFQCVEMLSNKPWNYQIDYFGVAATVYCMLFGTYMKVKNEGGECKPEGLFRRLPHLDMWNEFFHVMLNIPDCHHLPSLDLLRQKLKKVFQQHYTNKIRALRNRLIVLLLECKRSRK
Sequence of UniProt P35626 (whole entry, looked up): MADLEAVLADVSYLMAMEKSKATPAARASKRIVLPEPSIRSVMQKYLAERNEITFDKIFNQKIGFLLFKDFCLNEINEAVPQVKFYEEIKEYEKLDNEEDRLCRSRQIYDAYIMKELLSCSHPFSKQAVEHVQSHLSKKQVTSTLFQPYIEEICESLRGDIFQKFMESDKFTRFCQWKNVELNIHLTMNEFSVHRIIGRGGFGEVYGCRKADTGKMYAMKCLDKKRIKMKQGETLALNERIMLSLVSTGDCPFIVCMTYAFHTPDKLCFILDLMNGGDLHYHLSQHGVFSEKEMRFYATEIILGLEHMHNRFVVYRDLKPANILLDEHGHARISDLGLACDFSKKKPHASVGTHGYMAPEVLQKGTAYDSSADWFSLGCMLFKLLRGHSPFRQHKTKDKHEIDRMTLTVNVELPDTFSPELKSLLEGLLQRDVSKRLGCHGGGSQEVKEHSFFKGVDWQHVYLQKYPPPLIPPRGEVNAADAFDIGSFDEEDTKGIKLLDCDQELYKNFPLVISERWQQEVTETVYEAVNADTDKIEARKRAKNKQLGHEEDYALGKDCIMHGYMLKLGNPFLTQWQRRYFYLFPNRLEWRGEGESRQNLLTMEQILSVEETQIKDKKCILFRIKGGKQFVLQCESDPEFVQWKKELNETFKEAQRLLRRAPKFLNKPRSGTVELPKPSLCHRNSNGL
Sequence of UniProt Q9BYT3 (whole entry, looked up): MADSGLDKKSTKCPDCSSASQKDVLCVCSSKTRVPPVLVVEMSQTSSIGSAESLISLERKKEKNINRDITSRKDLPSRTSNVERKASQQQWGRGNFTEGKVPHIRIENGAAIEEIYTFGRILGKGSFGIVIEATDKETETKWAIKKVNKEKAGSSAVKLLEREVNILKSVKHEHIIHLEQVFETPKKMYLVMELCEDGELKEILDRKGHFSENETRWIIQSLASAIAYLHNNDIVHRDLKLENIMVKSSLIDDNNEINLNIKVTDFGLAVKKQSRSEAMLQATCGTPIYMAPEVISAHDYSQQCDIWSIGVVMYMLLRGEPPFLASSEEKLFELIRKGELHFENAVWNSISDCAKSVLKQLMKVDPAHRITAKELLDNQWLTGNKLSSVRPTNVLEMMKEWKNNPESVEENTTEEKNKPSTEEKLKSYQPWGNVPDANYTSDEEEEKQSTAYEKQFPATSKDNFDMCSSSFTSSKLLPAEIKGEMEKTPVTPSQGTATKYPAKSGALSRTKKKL
Sequence of UniProt P21127 (whole entry, looked up): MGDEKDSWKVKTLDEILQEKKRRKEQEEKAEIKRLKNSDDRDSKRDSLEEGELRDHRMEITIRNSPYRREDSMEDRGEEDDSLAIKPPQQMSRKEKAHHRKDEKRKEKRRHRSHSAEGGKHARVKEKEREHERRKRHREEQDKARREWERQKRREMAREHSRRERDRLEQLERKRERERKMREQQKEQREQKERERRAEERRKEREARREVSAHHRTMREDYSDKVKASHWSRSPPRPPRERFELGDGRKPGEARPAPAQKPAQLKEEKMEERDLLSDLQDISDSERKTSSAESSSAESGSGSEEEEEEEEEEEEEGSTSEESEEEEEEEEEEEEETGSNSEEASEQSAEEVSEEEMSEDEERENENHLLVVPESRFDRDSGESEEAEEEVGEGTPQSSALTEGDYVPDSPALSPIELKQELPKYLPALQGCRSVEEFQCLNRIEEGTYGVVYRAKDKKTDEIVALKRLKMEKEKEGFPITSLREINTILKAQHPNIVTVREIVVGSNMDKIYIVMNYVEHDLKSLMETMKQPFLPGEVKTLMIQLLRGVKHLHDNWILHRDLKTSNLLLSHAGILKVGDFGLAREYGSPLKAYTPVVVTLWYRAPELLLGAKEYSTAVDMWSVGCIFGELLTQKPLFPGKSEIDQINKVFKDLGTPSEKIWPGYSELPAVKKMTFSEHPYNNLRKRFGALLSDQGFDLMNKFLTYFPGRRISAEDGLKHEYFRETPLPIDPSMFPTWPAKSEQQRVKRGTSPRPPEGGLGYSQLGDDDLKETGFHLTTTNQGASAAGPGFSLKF
Sequence of UniProt Q96L34 (whole entry, looked up): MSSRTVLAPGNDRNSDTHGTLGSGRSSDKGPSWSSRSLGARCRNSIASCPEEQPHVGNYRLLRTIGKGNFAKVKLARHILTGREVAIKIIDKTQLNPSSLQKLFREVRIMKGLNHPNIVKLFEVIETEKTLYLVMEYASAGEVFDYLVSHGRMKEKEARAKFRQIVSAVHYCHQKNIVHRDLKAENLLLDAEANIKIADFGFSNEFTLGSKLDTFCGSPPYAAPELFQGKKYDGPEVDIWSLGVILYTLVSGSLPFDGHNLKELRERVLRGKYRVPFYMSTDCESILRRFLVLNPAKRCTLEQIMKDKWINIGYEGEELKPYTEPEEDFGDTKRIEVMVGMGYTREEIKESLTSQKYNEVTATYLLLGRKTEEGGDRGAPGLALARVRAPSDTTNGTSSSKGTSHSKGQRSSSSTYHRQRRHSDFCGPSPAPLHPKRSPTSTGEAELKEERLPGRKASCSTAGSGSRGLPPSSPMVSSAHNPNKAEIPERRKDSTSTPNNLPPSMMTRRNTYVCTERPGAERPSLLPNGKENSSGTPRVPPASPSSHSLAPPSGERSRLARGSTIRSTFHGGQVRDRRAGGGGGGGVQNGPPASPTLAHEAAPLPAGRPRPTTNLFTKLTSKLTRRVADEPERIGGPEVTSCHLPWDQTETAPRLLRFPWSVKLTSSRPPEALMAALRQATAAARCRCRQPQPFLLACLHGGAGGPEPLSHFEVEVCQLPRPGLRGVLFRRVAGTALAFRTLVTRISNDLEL
Sequence of UniProt O23661 (whole entry, looked up): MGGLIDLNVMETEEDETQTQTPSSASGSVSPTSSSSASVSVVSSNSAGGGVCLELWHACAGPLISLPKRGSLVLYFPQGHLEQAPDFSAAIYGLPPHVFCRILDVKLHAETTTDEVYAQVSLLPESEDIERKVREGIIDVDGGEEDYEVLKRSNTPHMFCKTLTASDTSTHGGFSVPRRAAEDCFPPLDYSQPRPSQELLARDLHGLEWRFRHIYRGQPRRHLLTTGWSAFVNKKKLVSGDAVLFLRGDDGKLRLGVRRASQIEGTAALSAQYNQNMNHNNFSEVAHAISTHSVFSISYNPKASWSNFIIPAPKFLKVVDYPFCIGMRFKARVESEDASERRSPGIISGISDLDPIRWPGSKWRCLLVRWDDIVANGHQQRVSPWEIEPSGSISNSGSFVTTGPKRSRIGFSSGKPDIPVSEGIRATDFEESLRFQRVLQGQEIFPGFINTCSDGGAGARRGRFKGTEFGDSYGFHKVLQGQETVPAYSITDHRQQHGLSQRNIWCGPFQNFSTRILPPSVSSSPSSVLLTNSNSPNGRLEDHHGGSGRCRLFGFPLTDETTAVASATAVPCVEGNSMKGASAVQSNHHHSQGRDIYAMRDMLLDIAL
Sequence of UniProt Q9FKM7 (whole entry, looked up): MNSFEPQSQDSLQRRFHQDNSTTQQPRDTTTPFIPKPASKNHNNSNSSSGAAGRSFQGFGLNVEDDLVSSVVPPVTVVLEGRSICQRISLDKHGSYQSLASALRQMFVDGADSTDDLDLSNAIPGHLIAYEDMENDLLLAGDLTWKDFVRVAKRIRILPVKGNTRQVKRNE
Sequence of UniProt P11802 (whole entry, looked up): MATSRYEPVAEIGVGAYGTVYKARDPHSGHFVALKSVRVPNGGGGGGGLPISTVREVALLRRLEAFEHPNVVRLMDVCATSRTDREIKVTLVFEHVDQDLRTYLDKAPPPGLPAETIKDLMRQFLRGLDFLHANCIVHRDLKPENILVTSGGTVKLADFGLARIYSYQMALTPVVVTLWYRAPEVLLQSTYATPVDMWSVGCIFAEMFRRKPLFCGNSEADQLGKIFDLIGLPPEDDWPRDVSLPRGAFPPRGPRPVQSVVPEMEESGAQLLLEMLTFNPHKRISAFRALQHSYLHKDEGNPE

Set 1
Target: NFE2, bZIP domain (human)
Technique: DHFR protein complementation
Sample: yeast
Notes: single substitutions, most at no-binding floor
Relative to: wild-type JUN-FOS pair
Direction: higher = stronger binding
Starting sequence: JUN, bZIP domain (human); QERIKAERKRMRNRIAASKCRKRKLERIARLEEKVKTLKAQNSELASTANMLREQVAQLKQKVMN; partner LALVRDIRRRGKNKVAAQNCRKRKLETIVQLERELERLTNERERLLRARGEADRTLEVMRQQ
| Variant | binding fitness |
| --- | --- |
| E32A | -1.37 natural log |
| I28A | -1.54 natural log |
| T48H | -1.45 natural log |
| A29T | -1.45 natural log |
| K36P | -1.41 natural log |
| T37G | -1.48 natural log |
| E32H | -1.48 natural log |
| V35K | -1.52 natural log |

Set 2
Sequence: B1 (IAA29)
Technique: two-hybrid
Direction: higher = firmer interaction
B1: IAA29 (Arabidopsis thaliana, UniProt Q93WC4); chain MELDLGLSLSPHKSSKLGFNFDLNKHCAIEGAASCLGTEKLRFEATFGLGNVEENCYMPKQRLFALNGQPNEEDEDPLESESSIVYDDEEENSEVVGWPPVKTCMIKYGSYHHRHIRNHHHCPYHHRGRRITAMNNNISNPTTATVGSSSSSSISSRSSMYVKVKMDGVAIARKVDIKLFNSYESLTNSLITMFTEYEDCDREDTNYTFTFQGKEGDWLLRGDVTWKIFAESVHRISIIRDRPCAYTRCLF
| partner | relative to | positive tests |
| --- | --- | --- |
| ETT (Arabidopsis thaliana, UniProt O23661) | out of 2 tests | 0 |
| ARF2 727-859 (Arabidopsis thaliana, UniProt Q94JM3) | out of 4 tests | 1 |
| IAA33 (Arabidopsis thaliana, UniProt Q9FKM7) | out of 4 tests | 2 |

Set 3
SMILES: COCCOc1nc(-c2ccc(Cl)nc2)nc2c1CN(C(=O)c1ncn3ccccc13)CC2
Read-out: cell-free assay
Technique: competition with immobilised ligand
Concentration: 0.1 µM
| target | remaining binding [%] |
| --- | --- |
| ALK (Homo sapiens, UniProt Q9UM73, C1156Y) | 100 |
| CDK4 (Homo sapiens, UniProt P11802) | 100 |
| CHEK2 (Homo sapiens, UniProt O96017) | 100 |
| VRK2 (Homo sapiens, UniProt Q86Y07) | 91 |
| RIPK2 (Homo sapiens, UniProt O43353) | 100 |
| HUNK (Homo sapiens, UniProt P57058) | 78 |
| Ribosomal protein S6 kinase alpha-4, N-terminal kinase domain (RPS6KA4, Homo sapiens, UniProt O75676) | 86 |
| CDK11B (Homo sapiens, UniProt P21127) | 100 |
| LATS1 (Homo sapiens, UniProt O95835) | 70 |
| MAPK10 (Homo sapiens, UniProt P53779) | 91 |
| BUB1 (Homo sapiens, UniProt O43683) | 82 |
| MARK4 (Homo sapiens, UniProt Q96L34) | 100 |
| STK33 (Homo sapiens, UniProt Q9BYT3) | 53 |

Set 4
Structure (SMILES): COc1cc(Nc2c(C#N)cnc3cc(OCCCN4CCN(C)CC4)c(OC)cc23)c(Cl)cc1Cl
Read-out: enzyme activity
Mode: inhibitor
Concentration: 0.5 µM
Relative to: control
| target | remaining activity |
| --- | --- |
| GRK3 (Homo sapiens, UniProt P35626) | 99.2% |
| PRKACA (Homo sapiens, UniProt P17612) | 73.8% |
| TGFBR1 (Homo sapiens, UniProt P36897) | 99% |
| Cyclin-dependent kinase 5, with p25 (CDK5, Homo sapiens, UniProt Q00535) | 95.9% |
| NEK2 (Homo sapiens, UniProt P51955) | 8.56% |

Excerpt of the above (set 1):
| Variant | binding fitness |
| --- | --- |
| V35K | -1.52 natural log |
